{"data": "Measured values from different studies", "note": "A part holds a random share of what one study measured.", "chain of UniProt Q9Y261 (142-269, looked up)": "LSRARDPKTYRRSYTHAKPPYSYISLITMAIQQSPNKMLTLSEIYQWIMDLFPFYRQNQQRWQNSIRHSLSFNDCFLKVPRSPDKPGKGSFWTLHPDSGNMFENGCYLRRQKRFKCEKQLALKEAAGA", "chain of UniProt Q9WVH4 (31-263, looked up)": "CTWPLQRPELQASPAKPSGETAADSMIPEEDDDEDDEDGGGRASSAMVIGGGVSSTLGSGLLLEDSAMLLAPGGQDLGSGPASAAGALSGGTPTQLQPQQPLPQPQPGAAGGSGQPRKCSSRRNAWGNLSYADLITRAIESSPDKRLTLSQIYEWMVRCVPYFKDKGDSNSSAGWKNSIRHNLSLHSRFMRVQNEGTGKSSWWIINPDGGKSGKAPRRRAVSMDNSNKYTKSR"}
{"data": "Block 1", "cell line": "HEK-293T/ACE2", "tested at": "concentration not given", "time": "16 (unit not given)", "baseline": "vehicle"}
{"SMILES": "C[C@H](Cc1cc2c(c(C(N)=O)c1)N(CCCO)CC2)NCCOc1ccccc1OCC(F)(F)F", "viability [%]": 99.3}
{"SMILES": "C[C@@H](c1ncncc1F)[C@](O)(Cn1cncn1)c1ccc(F)cc1F", "viability [%]": 101}
{"SMILES": "COc1ccc([C@@H]2Sc3ccccc3N(CCN(C)C)C(=O)[C@@H]2OC(C)=O)cc1", "viability [%]": 105}
{"SMILES": "CCC(=O)O[C@]1(C(=O)CCl)[C@@H](C)C[C@H]2[C@@H]3CCC4=CC(=O)C=C[C@]4(C)[C@@]3(F)[C@@H](O)C[C@@]21C", "viability [%]": 105}
{"data": "Block 2", "target": "Protein C-ets-1 (ETS1, Homo sapiens, UniProt P14921, residues 1-441, full length assumed)", "method": "protein-binding microarray", "molecule type": "double-stranded DNA, one strand shown", "matrix": "in vitro", "tested at": "not given", "setting": "k-mer, scored over probes, only values ≥0.25", "direction": "higher = stronger binding", "chain of UniProt P14921 (whole entry, looked up)": "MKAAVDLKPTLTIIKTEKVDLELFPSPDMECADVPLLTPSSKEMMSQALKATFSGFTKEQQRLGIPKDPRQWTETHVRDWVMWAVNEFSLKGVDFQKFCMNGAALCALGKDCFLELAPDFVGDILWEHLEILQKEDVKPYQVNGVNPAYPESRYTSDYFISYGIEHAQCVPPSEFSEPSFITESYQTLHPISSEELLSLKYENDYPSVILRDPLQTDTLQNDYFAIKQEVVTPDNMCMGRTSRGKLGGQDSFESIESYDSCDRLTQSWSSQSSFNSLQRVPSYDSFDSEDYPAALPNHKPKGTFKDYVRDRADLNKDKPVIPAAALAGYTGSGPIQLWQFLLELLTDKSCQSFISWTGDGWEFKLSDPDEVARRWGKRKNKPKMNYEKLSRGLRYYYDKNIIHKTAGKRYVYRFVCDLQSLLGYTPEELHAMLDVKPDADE"}
{"Oligonucleotide": "TTCCGCAA", "E-score": 0.419}
{"Oligonucleotide": "CCGGCAGG", "E-score": 0.274}
{"Oligonucleotide": "AAAGGATA", "E-score": 0.302}
{"Oligonucleotide": "CTCCGGAC", "E-score": 0.331}
{"Oligonucleotide": "GAAAGGAA", "E-score": 0.324}
{"data": "Block 3", "target": "Interferon regulatory factor 7, full length, phosphomimetic (IRF7, Homo sapiens, UniProt Q92985, residues 1-503, S471D/S472D/S475D/S476D/S477D/S483D/S484D/S487D)", "method": "protein-binding microarray", "molecule type": "double-stranded DNA, one strand shown", "matrix": "in vitro", "tested at": "2200 nM top", "setting": "60-bp whole probe", "with": "salmon DNA 0.4 mg/ml", "baseline": "random background probes", "direction": "higher = stronger binding", "constant ends, left off below": "GCCTAGCAC … GTCTTGATTCGCTTGACGCTGCTG", "Residues (chain)": "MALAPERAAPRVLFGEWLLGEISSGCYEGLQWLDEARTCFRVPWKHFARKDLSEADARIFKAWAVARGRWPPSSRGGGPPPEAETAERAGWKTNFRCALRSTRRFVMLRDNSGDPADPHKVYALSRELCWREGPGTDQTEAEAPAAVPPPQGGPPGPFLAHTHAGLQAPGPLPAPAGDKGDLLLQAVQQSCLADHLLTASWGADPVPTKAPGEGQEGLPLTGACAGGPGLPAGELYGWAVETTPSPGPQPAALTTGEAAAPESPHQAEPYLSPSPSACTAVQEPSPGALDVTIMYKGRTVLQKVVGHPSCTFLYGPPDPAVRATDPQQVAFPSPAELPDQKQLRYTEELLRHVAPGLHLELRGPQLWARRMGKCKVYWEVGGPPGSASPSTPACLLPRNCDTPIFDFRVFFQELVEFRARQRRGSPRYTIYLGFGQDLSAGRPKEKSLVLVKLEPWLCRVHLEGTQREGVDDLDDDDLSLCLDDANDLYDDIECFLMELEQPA"}
{"Oligonucleotide": "TTAGAACTGAGACTGGCTTAGTGCTAG", "fitted relative affinity [z-score]": -0.496}
{"Oligonucleotide": "GTAGAACTGGGGACTGGATTAGTGCTA", "fitted relative affinity [z-score]": -0.359}
{"Oligonucleotide": "CATTGCCTGTTTTTCCCCTGGTGCTAG", "fitted relative affinity [z-score]": 1.58}
{"Oligonucleotide": "TCAAACCTGGGTCTCTGACTGTGCTAG", "fitted relative affinity [z-score]": -0.077}
{"Oligonucleotide": "GAAGAACTGAGTTTCGAGACGTGCTAG", "fitted relative affinity [z-score]": 2.11}
{"Oligonucleotide": "TTAGGACTGGGGTTTCGGTTCGTGCTA", "fitted relative affinity [z-score]": 7}
{"Oligonucleotide": "GACGATATCGTGACTGGAGACGTGCTA", "fitted relative affinity [z-score]": -0.12}
{"Oligonucleotide": "TTAGATTTCCGACTGGATTAGTGCTAG", "fitted relative affinity [z-score]": 0.389}
{"data": "Block 4", "target": "Replicase polyprotein 1ab, main protease (rep, Severe acute respiratory syndrome coronavirus 2, UniProt P0DTD1)", "effect on": "enzyme activity", "mode": "inhibitor", "tested at": "20 µM", "setting": "hit confirmation, with DTT"}
{"Compound": "CCN(CC)c1ccc(C(=C2C=CC(=[N+](CC)CC)C=C2)c2ccccc2)cc1", "inhibition": "-16.4%"}
{"Compound": "COc1cc(C(=S)N2CCOCC2)ccc1O", "inhibition": "-1%"}
{"Compound": "O=[N+]([O-])c1ccc(O)c2ncccc12", "inhibition": "-8.2%"}
{"Compound": "CC1(C)C(/C=C/C=C/C=C/C=C2\\N(CCCCS(=O)(=O)[O-])c3ccc4ccccc4c3C2(C)C)=[N+](CCCCS(=O)(=O)[O-])c2ccc3ccccc3c21.[Na+]", "inhibition": "34%"}
{"data": "Block 5", "target": "Replicase polyprotein 1ab, polymerase (rep, Severe acute respiratory syndrome coronavirus 2, UniProt P0DTD1)", "effect on": "enzyme activity", "mode": "inhibitor", "tested at": "20 µM"}
{"Compound": "COc1cc([C@@H]2c3cc4c(cc3[C@H](O)[C@H]3COC(=O)[C@H]23)OCO4)cc(OC)c1OC", "inhibition [%]": 2.88}
{"Compound": "C[N+](C)(C)NCCC(=O)[O-]", "inhibition [%]": 4.13}
{"Compound": "CCCC(=O)O[C@]1(C(=O)CCl)[C@H](C)C[C@@H]2[C@@H]3CCC4=CC(=O)C=C[C@]4(C)[C@]3(F)C(=O)C[C@@]21C", "inhibition [%]": -0.47}
{"Compound": "CCOC(=O)COc1ccc2c(c1)C[C@@H](NC[C@H](O)c1cccc(Cl)c1)CC2", "inhibition [%]": -1.13}
{"Compound": "Ic1cc(-c2ccccc2)ncn1", "inhibition [%]": 0.38}
{"Compound": "COc1ccc2nc(SCc3ncc(C)c(OC)c3C)[nH]c2c1", "inhibition [%]": 0.25}
{"Compound": "Nc1nc(=S)c2ncn([C@@H]3O[C@H](CO)[C@@H](O)[C@H]3O)c2[nH]1", "inhibition [%]": -1.44}
{"Compound": "CN1C(=O)C[C@@H](C(=O)N[C@@H](Cc2c[nH]cn2)C(=O)N2CCC[C@H]2C(N)=O)NC1=O", "inhibition [%]": -2.4}
{"Compound": "Cc1ccc(Cl)c(OCC(O)CNC(C)C)c1 (centres unmarked)", "inhibition [%]": 1.51}
{"Compound": "O[C@@H]1CO[C@H]2[C@@H]1OC[C@@H]2O", "inhibition [%]": -7.78}
{"Compound": "CC[C@H]1OC(=O)C[C@@H](O)[C@H](C)[C@@H](O[C@@H]2O[C@H](C)C[C@H](N(C)C)[C@H]2O)[C@@H](CC=O)C[C@@H](C)C(=O)/C=C/[C@]2(C)O[C@H]2[C@@H]1C", "inhibition [%]": -2.69}
{"Compound": "Cc1cc(Oc2ccc3nc(COc4ccc(CC5SC(=O)NC5=O)cc4)n(C)c3c2)cc(C)c1N (centres unmarked)", "inhibition [%]": 15.3}
{"Compound": "Nc1nc(CC(=O)Nc2ccc(CCNC[C@H](O)c3ccccc3)cc2)cs1", "inhibition [%]": -0.45}
{"Compound": "Cc1c(C(=O)NN2CCOCC2)nn(-c2ccc(Cl)cc2Cl)c1-c1ccc(I)cc1", "inhibition [%]": 23.7}
{"Compound": "CC(C)C(C(=O)Nc1nccs1)c1ccc(Cl)cc1 (centres unmarked)", "inhibition [%]": -3.73}
{"Compound": "CC(C)Cc1ccc(C(C)C(=O)NCCO)cc1 (centres unmarked)", "inhibition [%]": 6.33}
{"Compound": "COc1cc(/C=C/C(N)=O)cc(OC)c1OC", "inhibition [%]": -0.16}
{"Compound": "CN[C@@H](C)C(=O)N[C@H](C(=O)N1CCC[C@H]1C(=O)Nc1sc(-c2ncco2)nc1-c1ccccc1)C1CCCCC1", "inhibition [%]": 1.58}
{"Compound": "CC(C)(C)C(=O)C(Oc1ccc(Cl)cc1)n1ccnc1 (centres unmarked)", "inhibition [%]": -11.2}
{"Compound": "O=C(CCCl)NCCc1ccccc1", "inhibition [%]": -2.02}
{"Compound": "O=C(Nc1ccccc1)Nc1ccc(-c2ccc(C(=O)[C@@H]3CCC[C@H]3C(=O)O)cc2)cc1", "inhibition [%]": 11.2}
{"Compound": "O=C(O)CNC(=O)c1ccccc1I", "inhibition [%]": 3.24}
{"Compound": "Cn1cc(-c2[nH]c3cc(NC(=O)[C@H](N)C4CCCCC4)cc4c3c2C=NNC4=O)cn1", "inhibition [%]": 55.5}
{"Compound": "OCCOc1ccc(/C(=C(/CCCl)c2ccccc2)c2ccccc2)cc1", "inhibition [%]": 1.73}
{"Compound": "CO[C@@H]1[C@H](OC(=O)/C=C/C=C/C=C/C=C/C(=O)O)CC[C@]2(CO2)[C@H]1[C@@]1(C)O[C@@H]1CC=C(C)C", "inhibition [%]": 3.2}
{"data": "Other studies, line by line", "method": "protein-binding microarray", "molecule type": "hairpin DNA", "matrix": "in vitro", "tested at": "not given", "setting": "whole hairpin DNA, median over replicate spots", "baseline": "not given", "direction": "higher = stronger binding", "IRF1 DNA-binding domain": "Interferon regulatory factor 1, DNA-binding domain (IRF1, Homo sapiens, UniProt P10914, residues 1-114)", "chain of UniProt P10914 (1-114, looked up)": "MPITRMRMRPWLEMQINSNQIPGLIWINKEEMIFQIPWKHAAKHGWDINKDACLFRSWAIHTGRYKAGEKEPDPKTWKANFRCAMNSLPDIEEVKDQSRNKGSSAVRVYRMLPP"}
{"Oligonucleotide": "GAGGCCATGCGAACAACGCCTCCTGGCGTTGTTCGCATGGCCTCACACTC", "target": "FOXO3, forkhead domain (mouse, UniProt Q9WVH4, residues 31-263)", "median fluorescence [a.u.]": 4640}
{"Oligonucleotide": "GAGGCCCGAAAGCGACACGCCTCCTGGCGTGTCGCTTTCGGGCCTCACAC (5mC at 16)", "target": "IRF1 DNA-binding domain", "median fluorescence [a.u.]": 520}
{"Oligonucleotide": "GAGGCCATGTCGCCAACGCCTCCTGGCGTTGGCGACATGGCCTCACACTC", "target": "Hepatocyte nuclear factor 3-beta, forkhead domain (FOXA2, Homo sapiens, UniProt Q9Y261, residues 142-269)", "median fluorescence [a.u.]": 3390}
{"Oligonucleotide": "GAGGCCCGAACGCGAAACGCCTCCTGGCGTTTCGCGTTCGGGCCTCACAC (5mC at 11)", "target": "IRF1 DNA-binding domain", "median fluorescence [a.u.]": 544}
